Published values pooled from the literature.
Protocols differ between the studies behind these lines. ± gives the spread as reported.

Cc1cc2ccccc2n1CCNC(=O)c1cnc(Nc2ccccc2)nc1
remaining compound (mouse liver microsomes; 60 min): > 7%

CC[C@H](C)C(=O)O[C@H]1C[C@@H](C)C=C2C=C[C@H](C)[C@H](CC[C@@H]3C[C@@H](O)CC(=O)O3)[C@H]21
remaining compound (mouse liver microsomes; 30 min): not detected

N#Cc1ccc(Nc2nc(N)cc(Oc3c(F)cc(-c4ccc(C#N)cc4)cc3F)n2)cc1
remaining compound (human plasma; 1 µM, 5.00 h, pH 7.4, 37 °C): 85%

Nc1nc2c(ncn2[C@@H]2O[C@@H]3COP(=O)(O)O[C@H]4[C@@H](O)[C@H](n5cnc6c(N)ncnc65)O[C@@H]4COP(=O)(O)O[C@H]2[C@@H]3O)c(=O)[nH]1
remaining compound (LC-MS; human serum; 24 h): 80%

C/C(=N\NC(=O)c1cccc(S(=O)(=O)N2CCN(C)CC2)c1)c1cc(Cl)ccc1O
remaining compound (aqueous buffer; 0 days, 37 °C): 88%

C=CC(=O)N1CCC(C(=O)NCC(=O)N2CCN(c3nc(-c4cnc(N)nc4C(F)F)nc(N4CCOCC4)n3)CC2)CC1
remaining compound (microsomes, rat liver, male, Sprague-Dawley; 1 µM, 60 min, without NADPH, 0.5 mg/mL microsomal protein): 110%

Cc1cc2ccccc2n1CCNC(=O)c1ccc(-n2cnnn2)cc1
remaining compound (mouse liver microsomes; 60 min): > 7%

C=CC(=O)N1CCC(C(=O)N(C)CC(=O)N2CCN(c3nc(-c4cnc(N)nc4C(F)F)nc(N4CCOCC4)n3)CC2)CC1
remaining compound (microsomes, rat liver, male, Sprague-Dawley; 1 µM, 30 min, 0.5 mg/mL microsomal protein, together with: NADPH): 92%

NCc1cc2c(cc1F)C(=O)N(C1CCC(=O)NC1=O)C2 (centres unmarked)
remaining compound (male New Zealand White rabbit, whole blood; 3 h, without inhibitor): < 1%

CCOC(=O)C1=C(CN2CCC[C@@H]2C(=O)Nc2ccc(B(O)O)cc2)NC(c2nccs2)=N[C@H]1c1ccc(F)cc1Br
remaining compound (human liver microsomes; 1 µM, 60 min, pH 7.4): 78%

CC[C@H](C)[C@@H]([C@@H](CC(=O)N1CCC[C@H]1[C@H](OC)[C@@H](C)C(=O)N[C@@H](Cc1ccccc1)C(=O)NCCCO)OC)N(C)C(=O)[C@@H](NC(=O)[C@H](C(C)C)N(C)C)C(C)C
remaining compound (human whole blood; 1 µM, 60 min): 80.5%

CC(C(=O)Nc1c(F)cccc1F)N1CCN(c2ccccc2)CC1 (centres unmarked)
remaining compound (human plasma; 1 µM, 4 h, 37 °C): 99.8%

CC(C)[N+](C)(CCOC(=O)C1c2ccccc2Oc2ccccc21)C(C)C
remaining compound (human whole blood; 5 µM, 0 min): 100%

N.O=C(Nc1nc2ccccc2s1)NS(=O)(=O)O
remaining compound (mouse liver microsomes; 4 µM, 30 min): 0%

Cn1cncc1-c1c(F)cncc1NC(=O)c1c(N)nn2cc(F)cnc12
remaining compound (DMSO stock solution; 100 µg/mL, 6 h, room temperature, benchtop): 98.1%

CO[C@@H](C[C@H]1C(C)=CC[C@@H]2[C@]3(C)C[C@H](O[C@@H]4O[C@@H](C)[C@H](OC(=O)c5cccc(O)c5)[C@@H](O[C@@H]5O[C@H](CO)[C@@H](O)[C@H](O)[C@H]5NC(C)=O)[C@H]4O)[C@@H](O)C(C)(C)[C@H]3CC[C@]21C)[C@H](N)C(=O)O.O=C(O)C(F)(F)F
remaining compound (simulated gastric fluid with pepsin; 1 µM, 60 min, pH 1.2): 102%

CCOc1ccc2ccc(=O)oc2c1
remaining compound (human liver microsomes; 1 µM, 10 min, pH 7.4): 58%

CNc1cc[n+](CCNC(=O)c2ccn3c(-c4c(C)noc4C)cnc3c2)cc1.[Cl-]
remaining compound (0.1 M HCl; initial, pH 1): 100 % peak area

O=S(=O)(c1ccc(F)cc1)N1CCNCC1COc1ccc2c(c1)OCO2 (centres unmarked)
remaining compound (mouse liver microsomes; 90 min): 62 ± 2%

Cc1ccc2c(c1)C(=O)[C@]1(O)CCN(c3ccc4nc(C)ccc4c3)C1=N2.Cl
remaining compound (DMEM culture medium, 0.5% FBS; 10 µM, 72 h, 37 °C, no vitamin C): > 90%

N[C@H]1CC[C@H](N[C@@H]2C[C@H]2c2ccccc2)CC1
remaining compound (aqueous buffer; 0 days, 37 °C): 99%

N#Cc1ccc(-c2cc(NCCCN3CCCCC3)c3ccccc3n2)cc1
remaining compound (human liver microsomes; 1 h): 40.8%

CCN(CC)CCOC(=O)c1ccc(N)cc1
remaining compound (mouse plasma; 10 µM, 120 min): < 1%

CSc1ncc(Br)c(C(=O)N[C@@H](CCC(=O)O)C(=O)N[C@@H](Cc2ccc3ccccc3c2)C(=O)N[C@@H](CC(C)C)C(=O)N[C@@H]2C[C@H]2c2ccccc2)n1
remaining compound (pooled human plasma; 30 min, 37 °C): 92.3%

O=Cc1c(O)cc(C(F)(F)F)cc1C(F)(F)F
remaining compound (HEPES buffer; 1 mM, 20 h, pH 7.4, 10% acetonitrile): 30%

COc1ccc2[nH]c([S+]([O-])Cc3ncc(C)c(OC)c3C)nc2c1 (centres unmarked)
remaining compound (simulated gastric fluid with pepsin; 1 µM, 30 min, pH 1.2): 0%

COc1ccc2cc3[n+](cc2c1OC)CCc1cc2c(cc1-3)OCO2
remaining compound (rat liver microsomes; 10 µM, 30 min, pH 7.4, together with: microsomes 0.5 mg/mL): 11.9 ± 0.1%

Cc1cc(Oc2ncccc2CN2CCN(c3cccc(C)c3C)CC2)ccc1-c1c(C)c(=O)[nH]c(=O)n1C
remaining compound (metabolic stability; rat liver S9 fraction; 2 µM, 0.6667 h, pH 7.4): > 90%

FC(F)=Cc1cc(C(F)(F)F)cc(C(F)(F)F)c1
remaining compound (HEPES buffer; 1 mM, 20 h, pH 7.4, 10% acetonitrile): 2%

CSc1nccc(C(=O)N[C@@H](CCC(=O)O)C(=O)N[C@@H](Cc2ccc3ccccc3c2)C(=O)N[C@@H](CC(C)C)C(=O)NC2CC2c2ccccc2)n1 (some centres unmarked)
remaining compound (pooled human plasma; 120 min, 37 °C): 100%

N#Cc1ccccc1-c1cc(NCCCN2CCCCC2)c2ccccc2n1
remaining compound (human plasma; 1 h): 93.2%

CC1(C)OB(c2ccccc2/C=N/NC(=O)c2ccncc2)OC1(C)C
remaining compound (LC-UV; DMEM cell medium; 100 µM, 24 h, without H2O2): 85%

O=C(O)c1ccc(-c2cc(NCCCN3CCCCC3)c3ccccc3n2)cc1
remaining compound (human liver microsomes; 1 h): 100%

O=C(O)c1ccc(CN2CCC(CN[C@@H]3C[C@H]3c3ccccc3)CC2)cc1
remaining compound (aqueous buffer; 0 days, 37 °C): 99%

CC[N+]1(C)CCN(c2ccc(NC(=O)c3cccc(C)n3)cc2)CC1
remaining compound (pooled BALB/c mouse plasma; 1 µM, 0.25 h): 102%

O=C(Oc1coc(CSc2ncccn2)cc1=O)c1ccc([N+](=O)[O-])cc1
remaining compound (mouse plasma; 1 h): < 1%

CCOC(=O)[C@H](CCc1ccccc1)N[C@@H](C)C(=O)N1CCC[C@H]1C(=O)O
remaining compound (mouse plasma; 10 µM, 30 min): 59%

N#C[C@@]12C[C@@H]1[C@@H](n1cnc3c(N[C@@H](C4CCC4)C4CC4)nc(I)nc31)[C@H](O)[C@@H]2O
remaining compound (plasma stability; mouse plasma; 120 min): 94.4%

NC(=O)c1ccccc1NC(=O)c1ccc(-c2ccccc2)cc1
remaining compound (human plasma; 2 µM, 30 min, 37 °C): 118%

CC(C)C[C@H](NC(=O)[C@H](CCc1ccccc1)NC(=O)CN1CCOCC1)C(=O)N[C@@H](Cc1ccccc1)C(=O)N[C@@H](CC(C)C)C(=O)[C@@]1(C)CO1
remaining compound (human liver microsomes; 60 min): not detected

CC(C)=CCC[C@](C)(O[C@@H]1O[C@H](CO[C@@H]2O[C@H](CO)[C@@H](O)[C@H](O)[C@H]2O)[C@@H](O)[C@H](O)[C@H]1O)[C@H]1CC[C@]2(C)[C@@H]1[C@H](O)C[C@@H]1[C@@]3(C)CC[C@H](O[C@@H]4O[C@H](CO)[C@@H](O)[C@H](O)[C@H]4O[C@@H]4O[C@H](CO)[C@@H](O)[C@H](O)[C@H]4O)C(C)(C)[C@@H]3CC[C@]12C
remaining compound (rat plasma; 5 ng/mL, 24 h, room temperature): 87.5 ± 6.2%

Some of these lines once more:
N[C@H]1CC[C@H](N[C@@H]2C[C@H]2c2ccccc2)CC1
remaining compound (aqueous buffer; 0 days, 37 °C): 99%

CC[N+]1(C)CCN(c2ccc(NC(=O)c3cccc(C)n3)cc2)CC1
remaining compound (pooled BALB/c mouse plasma; 1 µM, 0.25 h): 102%

CC(C(=O)Nc1c(F)cccc1F)N1CCN(c2ccccc2)CC1 (centres unmarked)
remaining compound (human plasma; 1 µM, 4 h, 37 °C): 99.8%
